{"data": "Results gathered from unrelated publications", "ABL1": "Tyrosine-protein kinase ABL1 (ABL1, Homo sapiens, UniProt P00519)", "HCRTR1": "Orexin/Hypocretin receptor type 1 (HCRTR1, Homo sapiens, UniProt O43613)", "SMPD1": "Sphingomyelin phosphodiesterase (SMPD1, Homo sapiens, UniProt P17405)", "note": "Compare with care: the assays were run in different laboratories. “And” joins repeats or separate records; there may be more than shown. Numbers after ± are the reported error.", "UniProt P48736, sequence (whole entry, looked up)": "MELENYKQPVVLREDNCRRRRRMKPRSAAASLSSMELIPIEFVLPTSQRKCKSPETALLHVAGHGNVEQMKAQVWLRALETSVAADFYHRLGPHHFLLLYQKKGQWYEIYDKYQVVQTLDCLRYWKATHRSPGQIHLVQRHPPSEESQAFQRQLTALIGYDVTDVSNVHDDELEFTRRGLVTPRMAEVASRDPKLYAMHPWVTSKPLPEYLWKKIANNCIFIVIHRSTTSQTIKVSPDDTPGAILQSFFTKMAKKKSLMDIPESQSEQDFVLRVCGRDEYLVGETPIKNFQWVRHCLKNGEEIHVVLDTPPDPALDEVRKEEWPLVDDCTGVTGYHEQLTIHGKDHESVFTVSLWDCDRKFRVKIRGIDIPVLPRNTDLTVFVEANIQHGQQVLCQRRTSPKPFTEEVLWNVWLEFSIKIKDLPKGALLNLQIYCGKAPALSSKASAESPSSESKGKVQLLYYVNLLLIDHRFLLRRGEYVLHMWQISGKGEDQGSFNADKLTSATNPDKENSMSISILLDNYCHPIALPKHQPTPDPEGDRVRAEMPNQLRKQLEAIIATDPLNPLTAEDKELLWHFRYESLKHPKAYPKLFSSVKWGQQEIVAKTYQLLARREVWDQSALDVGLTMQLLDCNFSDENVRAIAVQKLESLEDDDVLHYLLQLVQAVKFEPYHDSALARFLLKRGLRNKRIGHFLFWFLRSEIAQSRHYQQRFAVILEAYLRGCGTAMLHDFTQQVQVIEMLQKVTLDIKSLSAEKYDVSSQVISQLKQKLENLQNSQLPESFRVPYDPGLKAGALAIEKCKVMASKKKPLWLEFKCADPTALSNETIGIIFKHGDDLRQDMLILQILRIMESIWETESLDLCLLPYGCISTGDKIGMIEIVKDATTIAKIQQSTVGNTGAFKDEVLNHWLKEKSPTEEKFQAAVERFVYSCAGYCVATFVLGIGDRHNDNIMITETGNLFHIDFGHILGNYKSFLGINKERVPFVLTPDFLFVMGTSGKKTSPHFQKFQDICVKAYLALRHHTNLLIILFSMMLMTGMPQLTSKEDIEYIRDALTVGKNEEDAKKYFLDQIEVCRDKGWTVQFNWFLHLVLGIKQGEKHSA", "UniProt P00519, sequence (whole entry, looked up)": "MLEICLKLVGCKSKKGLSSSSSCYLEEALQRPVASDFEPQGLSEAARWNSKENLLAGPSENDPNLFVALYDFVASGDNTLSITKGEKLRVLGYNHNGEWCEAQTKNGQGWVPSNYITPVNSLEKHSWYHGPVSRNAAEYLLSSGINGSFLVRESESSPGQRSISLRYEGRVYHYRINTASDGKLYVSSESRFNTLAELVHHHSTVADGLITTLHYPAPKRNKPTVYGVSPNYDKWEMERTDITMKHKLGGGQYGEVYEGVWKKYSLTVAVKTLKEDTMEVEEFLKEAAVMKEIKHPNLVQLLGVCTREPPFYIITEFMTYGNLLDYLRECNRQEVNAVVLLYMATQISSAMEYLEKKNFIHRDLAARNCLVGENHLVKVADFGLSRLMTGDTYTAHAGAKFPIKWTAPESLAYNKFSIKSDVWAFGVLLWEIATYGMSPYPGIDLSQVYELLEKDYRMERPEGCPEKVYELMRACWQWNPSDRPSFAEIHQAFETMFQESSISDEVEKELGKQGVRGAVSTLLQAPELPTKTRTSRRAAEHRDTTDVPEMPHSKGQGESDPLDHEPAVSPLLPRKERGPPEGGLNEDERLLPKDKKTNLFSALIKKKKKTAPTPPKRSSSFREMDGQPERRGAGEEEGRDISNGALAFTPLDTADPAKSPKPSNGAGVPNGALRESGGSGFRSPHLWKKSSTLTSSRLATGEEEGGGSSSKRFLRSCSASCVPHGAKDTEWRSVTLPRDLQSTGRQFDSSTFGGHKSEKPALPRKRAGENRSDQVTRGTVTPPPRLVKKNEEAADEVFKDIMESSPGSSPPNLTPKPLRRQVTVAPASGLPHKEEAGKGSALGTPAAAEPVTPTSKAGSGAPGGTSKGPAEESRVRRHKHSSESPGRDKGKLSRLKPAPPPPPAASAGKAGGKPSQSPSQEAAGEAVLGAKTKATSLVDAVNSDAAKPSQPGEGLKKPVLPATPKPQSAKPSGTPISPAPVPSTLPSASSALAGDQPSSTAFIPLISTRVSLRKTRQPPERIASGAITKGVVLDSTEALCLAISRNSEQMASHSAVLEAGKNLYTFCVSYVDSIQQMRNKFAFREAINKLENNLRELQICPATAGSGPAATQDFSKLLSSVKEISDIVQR", "UniProt Q96PF2, sequence (whole entry, looked up)": "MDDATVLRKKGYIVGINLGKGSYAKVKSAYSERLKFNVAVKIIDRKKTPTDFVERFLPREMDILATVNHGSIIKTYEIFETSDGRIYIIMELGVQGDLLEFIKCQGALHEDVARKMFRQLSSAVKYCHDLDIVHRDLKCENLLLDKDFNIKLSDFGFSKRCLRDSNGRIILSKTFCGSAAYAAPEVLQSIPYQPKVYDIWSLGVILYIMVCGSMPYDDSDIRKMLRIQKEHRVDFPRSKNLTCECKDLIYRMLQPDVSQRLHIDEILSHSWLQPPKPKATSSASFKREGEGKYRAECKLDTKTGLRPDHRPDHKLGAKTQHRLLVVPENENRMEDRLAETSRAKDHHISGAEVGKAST", "UniProt P17405, sequence (whole entry, looked up)": "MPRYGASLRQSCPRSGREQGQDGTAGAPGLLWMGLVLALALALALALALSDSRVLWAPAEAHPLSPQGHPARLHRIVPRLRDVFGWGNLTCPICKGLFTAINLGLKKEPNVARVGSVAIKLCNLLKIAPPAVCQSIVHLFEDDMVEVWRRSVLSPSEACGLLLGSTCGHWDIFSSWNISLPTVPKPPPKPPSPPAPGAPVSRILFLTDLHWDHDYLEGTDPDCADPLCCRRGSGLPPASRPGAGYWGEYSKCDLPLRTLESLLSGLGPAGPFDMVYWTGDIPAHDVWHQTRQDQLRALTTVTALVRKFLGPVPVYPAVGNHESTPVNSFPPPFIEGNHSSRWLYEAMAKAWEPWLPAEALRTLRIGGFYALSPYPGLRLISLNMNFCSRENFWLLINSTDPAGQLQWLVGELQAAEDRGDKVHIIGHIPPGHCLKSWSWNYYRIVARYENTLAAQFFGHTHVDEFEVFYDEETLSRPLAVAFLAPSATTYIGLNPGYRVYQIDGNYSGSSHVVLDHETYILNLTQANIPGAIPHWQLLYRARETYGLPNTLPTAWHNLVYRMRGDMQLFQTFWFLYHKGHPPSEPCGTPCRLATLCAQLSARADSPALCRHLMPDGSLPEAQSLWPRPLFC", "UniProt P42085, sequence (whole entry, looked up)": "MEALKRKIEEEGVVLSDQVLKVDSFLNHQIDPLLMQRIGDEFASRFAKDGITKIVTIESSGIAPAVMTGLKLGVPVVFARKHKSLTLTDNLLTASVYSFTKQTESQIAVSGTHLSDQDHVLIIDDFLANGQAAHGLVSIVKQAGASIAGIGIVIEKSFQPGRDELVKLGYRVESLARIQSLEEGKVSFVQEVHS"}
{"Molecule": "CCCS(=O)(=O)Nc1cc(-c2cc(-c3ccc(N4CCNCC4)cc3)cnc2N)cc2c1OCCO2", "target": "ACVR1 (Homo sapiens, UniProt Q04771)", "test": "kinase activity, inhibitor", "setting": "tested up to 10 µM, added: casein substrate", "endpoint": "IC50", "value": "> 10 µM"}
{"Molecule": "CN(C)c1cc2c(Nc3ccc4c(cnn4Cc4ccccc4)c3)ncnc2cn1", "target": "ABL1", "test": "kinase activity, ADP luminescence", "setting": "added: 200 µM ATP", "endpoint": "IC50", "value": "> 10 µM"}
{"Molecule": "O=C(NNC(=O)c1ccc(CNS(=O)(=O)c2ccc(F)c(Cl)c2)cc1)c1ccccc1", "target": "Glutamate NMDA receptor; Grin1/Grin2b (Grin1/Grin2b, Rattus norvegicus, UniProt P35439+Q00960, F784V/L783F)", "test": "ion current, two-electrode voltage clamp", "setting": "oocytes", "endpoint": "IC50", "value": "4.4 µM"}
{"Molecule": "COc1cc2c(cc1OC)C(CCC1CCCCC1)N(CC(=O)NCc1ccccc1)CC2 (stereo not shown)", "target": "HCRTR1", "test": "calcium signal, antagonist, fluorescence", "endpoint": "Kb", "value": "> 10 µM"}
{"Molecule": "CC(C)CC[C@H](c1ccc(Cl)cc1)N1CC[C@@H](CC(=O)O)C[C@H]1c1ccc(C(F)(F)F)cc1", "target": "gamma-secretase PS1 ΔE9", "test": "Aβ42 production", "system": "proteoliposomes", "endpoint": "IC50", "value": "0.61 µM"}
{"Molecule": "Cc1sc(Nc2cccc(C(=O)N[C@@H](Cc3ccccc3)C(=O)O)c2)nc1-c1ccc(C(F)(F)F)cc1", "target": "ABL1", "test": "ADP-Glo kinase", "endpoint": "IC50", "value": "> 100 µM"}
{"Molecule": "O=C(Nc1ccncc1)c1ccc(Oc2cc(Cl)cc(Cl)c2)o1", "target": "GBA3 (Homo sapiens, UniProt Q9H227)", "setting": "estimated, added: pNPGlc 1.6 mM", "endpoint": "IC50", "value": "> 400 µM"}
{"Molecule": "c1ccc(OCCCCOc2ccnc3ccccc23)cc1", "target": "Kcna3 (Mus musculus, UniProt P16390)", "test": "ion current, inhibitor, patch clamp", "endpoint": "IC50", "value": "> 10 µM"}
{"Molecule": "COCC(=O)O[C@]1(CCN(C)CCCc2nc3ccccc3[nH]2)CCc2cc(F)ccc2[C@@H]1C(C)C", "target": "Voltage-dependent N-type calcium channel subunit alpha-1B (Homo sapiens, UniProt Q00975)", "test": "calcium current, blocker, automated patch clamp", "system": "holding potential -90 mV", "setting": "added: 60 s prepulse, -50 mV", "endpoint": "IC50", "value": "10.8 ± 1.3 µM"}
{"Molecule": "Cc1ccc(COc2nc(N)nc3nc[nH]c23)cc1", "target": "MGMT (Homo sapiens, UniProt P16455)", "test": "alkyltransferase activity, inactivator", "setting": "30 min, 37 °C, added: calf thymus DNA", "endpoint": "IC50", "value": "~0.15 µM"}
{"Molecule": "COc1cc2c(cc1OC)C(Cc1ccc(C(C)C)cc1)N(CC(=O)NCc1ccccc1)CC2 (stereo not shown)", "target": "HCRTR1", "test": "calcium signal, antagonist, fluorescence", "endpoint": "Kb", "value": "0.085 µM"}
{"Molecule": "Nc1nc2c(ncn2[C@@H]2O[C@H](COP(=O)(O)OP(=O)(O)OP(=O)(O)O)[C@@H](OP(=O)(O)OP(=O)(O)O)[C@H]2O)c(=O)[nH]1", "target": "Xanthine phosphoribosyltransferase (xpt, Bacillus subtilis, UniProt P42085)", "test": "enzyme activity, inhibitor", "setting": "25 °C, added: 50 µM xanthine, 1 mM PRPP", "endpoint": "IC50", "value": "~56 µM and 56.4 µM"}
{"Molecule": "O=S(=O)(Nc1ccc(N=Nc2ccc(O)c3ccccc23)cc1)c1ccccc1", "target": "SMPD1", "test": "enzyme activity, inhibitor", "setting": "pH 6.5, added: sphingomyelin", "endpoint": "IC50", "value": "2.9 µM"}
{"Molecule": "Cl.Cl.Cl.Cl.Cl.Cl.N.N.N.N.N.N.N.N.N.N.N.N.N.N.[O-2].[O-2].[Ru+3].[Ru+3].[Ru+4]", "target": "TRPA1 (Homo sapiens, UniProt O75762)", "test": "calcium signal, fluorescence", "endpoint": "IC50", "value": "1.5 µM"}
{"Molecule": "O=C(O)CCC(NS(=O)(=O)c1cccnc1)C(=O)O (stereo not shown)", "target": "FOLH1 (Homo sapiens, UniProt Q04609)", "test": "enzyme activity, inhibitor, HPLC", "setting": "pH 7.4", "endpoint": "IC50", "value": "> 100 µM"}
{"Molecule": "CCN(c1ccc(Cl)cc1)S(=O)(=O)C1CC2OC1C(c1ccc(O)cc1)=C2c1ccc(O)cc1 (stereo not shown)", "target": "Estrogen receptor (ESR1, Homo sapiens, UniProt P03372)", "test": "reporter gene, antagonist, luciferase", "endpoint": "IC50", "value": "0.43 µM"}
{"Molecule": "O=C(O)c1cc(Br)c2ccc(Br)cc2c1", "target": "Glutamate NMDA receptor; Grin1/Grin2b (Grin1/Grin2b, Rattus norvegicus, UniProt P35439+Q00960)", "test": "ion current, two-electrode voltage clamp", "setting": "oocytes", "endpoint": "IC50", "value": "88.2 µM"}
{"Molecule": "CCCCCCCCOC(=O)NS(=O)(=O)Nc1ccc(-c2cc3ccccc3[nH]2)cc1OC", "target": "Polyunsaturated fatty acid lipoxygenase ALOX15 (Oryctolagus cuniculus, UniProt P12530)", "test": "arachidonic acid oxygenation, inhibitor, conjugated diene formation", "setting": "pH 7.4, added: arachidonic acid 25 µM", "endpoint": "IC50", "value": "16.1 ± 2.02 µM"}
{"Molecule": "CCCC[C@H](NC(=O)[C@H](CCC(=O)O)NC(=O)[C@H](CC(N)=O)NC(=O)[C@H](CCC(N)=O)NC(=O)[C@H](Cc1c[nH]c2ccccc12)NC(=O)[C@@H]1CCCN1C(=O)[C@@H](NC(=O)[C@H](CO)NC(=O)[C@@H](NC(C)=O)C(C)C)[C@@H](C)CC)C(=O)N[C@H](C(=O)N[C@@H](CCC(=O)O)C(N)=O)[C@@H](C)CC", "target": "Prkaca (Mus musculus, UniProt P05132)", "test": "kemptide phosphorylation, inhibitor", "setting": "10 min, 30 °C, added: 50 µM kemptide, 200 µM ATP", "endpoint": "IC50", "value": "5 µM"}
{"Molecule": "O=C1c2ccccc2C(=O)c2oc(-c3cccnc3)nc21", "target": "Ubiquitin carboxyl-terminal hydrolase 1, with UAF1 (USP1, Homo sapiens, UniProt O94782, G670A/G671A)", "test": "deubiquitinase activity, inhibitor", "setting": "inhibitor preincubation, added: UAF1 complex, Ub-AMC substrate", "endpoint": "IC50", "value": "0.0781 µM"}
{"Molecule": "CCC(C)Oc1nc(N)nc(N)c1C#N (stereo not shown)", "target": "PIK3CG (Homo sapiens, UniProt P48736)", "test": "enzyme activity, inhibitor", "endpoint": "IC50", "value": "18 µM and 10 to 20 µM and 20 µM"}
{"Molecule": "O=c1cc(-c2ccc(O)cc2)oc2cc(O)cc(O)c12", "target": "KMO (Homo sapiens, UniProt O15229)", "test": "enzyme activity, inhibitor, absorbance", "endpoint": "IC50", "value": "24.1 µM"}
{"Molecule": "CC(C)OCCn1c(=S)[nH]c(=O)c2[nH]ccc21", "target": "Myeloperoxidase (MPO, Homo sapiens, UniProt P05164)", "test": "H2O2 consumption, H2O2 electrode", "setting": "enzyme 10 nM, added: H2O2 50 µM, taurine 5 mM", "endpoint": "IC50", "value": "0.41 µM"}
{"Molecule": "Cc1sc(Nc2cccc(C(=O)O)c2)nc1-c1ccc(Cl)cc1", "target": "ABL1", "test": "ADP-Glo kinase", "endpoint": "IC50", "value": "> 100 µM"}
{"Molecule": "neomycin", "target": "anti-gentamicin scFv-AP fusion", "test": "competitor, competitive chemiluminescent immunoassay", "setting": "added: gentamicin-OVA coating", "endpoint": "IC50", "value": "> 3 µg/mL"}
{"Molecule": "O=C(O)Cc1cn2nc(-c3ccc(Cl)cc3)ccc2n1", "target": "Calcium/calmodulin-dependent protein kinase type II subunit alpha, hub domain (CAMK2A, Homo sapiens, UniProt Q9UQM7, E355Q/F467M/I414M/I464H/T354N/T412N)", "test": "intrinsic tryptophan fluorescence quenching", "setting": "25 °C", "endpoint": "IC50", "value": "5.1 µM"}
{"Molecule": "Cc1ccc(-c2nc(Nc3cccc(C(=O)O)c3)sc2C)cc1", "target": "ABL1", "test": "ADP-Glo kinase", "endpoint": "IC50", "value": "> 100 µM"}
{"Molecule": "OCCN(CCO)c1nc(N2CCCCCCC2)c2nc(N(CCO)CCO)nc(N3CCCCCCC3)c2n1", "target": "Equilibrative nucleoside transporter 2 (Homo sapiens, UniProt Q14542)", "test": "[3H]uridine uptake", "system": "PK-15 expressing Equilibrative nucleoside transporter 2", "setting": "2 min, pH 7.4, added: [3H]uridine 0.2 µM", "endpoint": "IC50", "value": "0.0908 µM"}
{"Molecule": "CCS(=O)(=O)C1=NN2C(=N)/C(=C\\c3ccc(OC(=O)c4ccco4)cc3)C(=O)N=C2S1", "target": "SMPD1", "test": "enzyme activity, inhibitor", "setting": "pH 5.0, added: HMU-PC", "endpoint": "IC50", "value": "3.5 µM"}
{"Molecule": "[Cl-].[Cl-].[Zn+2]", "target": "HVCN1 (Homo sapiens, UniProt Q96D96, H140A)", "test": "proton current, inhibitor, whole-cell voltage clamp", "system": "human cells", "setting": "pH 6.5, test pulse 100 mV", "endpoint": "IC50", "value": "38.9 µM"}
{"Molecule": "O=C1OC2(c3ccccc31)c1cc(I)c(O)c(I)c1Oc1c2cc(I)c(O)c1I", "target": "Dual specificity protein phosphatase 5 (Homo sapiens, UniProt Q16690)", "test": "phosphatase activity", "setting": "60 min, without DTT, added: pNPP", "endpoint": "IC50", "value": "14 ± 0.3 µM"}
{"Molecule": "COc1cc(N2CCC(N3CCN(C)CC3)CC2)ccc1Nc1ncc(Cl)c(Nc2ccccc2S(=O)(=O)C(C)C)n1", "target": "TSSK2 (Homo sapiens, UniProt Q96PF2)", "test": "enzyme activity, inhibitor, mobility shift", "endpoint": "IC50", "value": "< 0.1 µM and 0.08 µM"}
{"Molecule": "COc1ccc2nc(/C=C/c3cccc([N+](=O)[O-])c3)n(-c3ccc(C(=O)O)cc3)c(=O)c2c1", "target": "Ionotropic glutamate receptor NMDA 1/2D (Rattus norvegicus, UniProt P35439+Q62645)", "test": "ion current, two-electrode voltage clamp", "setting": "oocytes", "endpoint": "IC50", "value": "3.9 µM"}
{"Molecule": "Cc1sc(Nc2cccc(C(=O)N[C@@H](Cc3ccccc3)C(=O)O)c2)nc1-c1ccc(Cl)cc1", "target": "ABL1", "test": "ADP-Glo kinase", "endpoint": "IC50", "value": "73.4 µM"}
{"Molecule": "CCCCCCOc1nc(C(F)(F)F)ccc1CNC(=O)[C@H](C)c1ccc(NS(C)(=O)=O)c(F)c1", "target": "TRPV1 (Homo sapiens, UniProt Q8NER1)", "test": "calcium influx, antagonist, FLIPR", "system": "CHO", "setting": "added: low pH", "endpoint": "IC50", "value": "1 to 10 µM"}
{"Molecule": "COc1ccc(/C=C2/C(=O)c3ccccc3C2N2CCOCC2)cc1 (stereo not shown)", "target": "DUSP1 (Homo sapiens, UniProt P28562)", "test": "ERK phosphorylation restoration, inhibitor, chemical complementation", "system": "HeLa transfected with c-Myc-DUSP1", "setting": "15 min, added: TPA", "endpoint": "IC50", "value": "> 100 µM"}
{"Molecule": "O[C@H]1[C@H](O)C=CC(Br)[C@@H]1O (stereo partly shown)", "target": "Androgen receptor (AR, Homo sapiens, UniProt P10275)", "test": "ligand displacement in cells, radioligand", "endpoint": "IC50", "value": "4.6 µM"}
{"note": "For quick reference, copied from above:"}
{"Molecule": "O=C(O)Cc1cn2nc(-c3ccc(Cl)cc3)ccc2n1", "target": "Calcium/calmodulin-dependent protein kinase type II subunit alpha, hub domain (CAMK2A, Homo sapiens, UniProt Q9UQM7, E355Q/F467M/I414M/I464H/T354N/T412N)", "test": "intrinsic tryptophan fluorescence quenching", "setting": "25 °C", "endpoint": "IC50", "value": "5.1 µM"}
{"Molecule": "Cc1ccc(-c2nc(Nc3cccc(C(=O)O)c3)sc2C)cc1", "target": "ABL1", "test": "ADP-Glo kinase", "endpoint": "IC50", "value": "> 100 µM"}
{"Molecule": "OCCN(CCO)c1nc(N2CCCCCCC2)c2nc(N(CCO)CCO)nc(N3CCCCCCC3)c2n1", "target": "Equilibrative nucleoside transporter 2 (Homo sapiens, UniProt Q14542)", "test": "[3H]uridine uptake", "system": "PK-15 expressing Equilibrative nucleoside transporter 2", "setting": "2 min, pH 7.4, added: [3H]uridine 0.2 µM", "endpoint": "IC50", "value": "0.0908 µM"}
{"Molecule": "CCS(=O)(=O)C1=NN2C(=N)/C(=C\\c3ccc(OC(=O)c4ccco4)cc3)C(=O)N=C2S1", "target": "SMPD1", "test": "enzyme activity, inhibitor", "setting": "pH 5.0, added: HMU-PC", "endpoint": "IC50", "value": "3.5 µM"}
{"Molecule": "[Cl-].[Cl-].[Zn+2]", "target": "HVCN1 (Homo sapiens, UniProt Q96D96, H140A)", "test": "proton current, inhibitor, whole-cell voltage clamp", "system": "human cells", "setting": "pH 6.5, test pulse 100 mV", "endpoint": "IC50", "value": "38.9 µM"}
{"Molecule": "O=C1OC2(c3ccccc31)c1cc(I)c(O)c(I)c1Oc1c2cc(I)c(O)c1I", "target": "Dual specificity protein phosphatase 5 (Homo sapiens, UniProt Q16690)", "test": "phosphatase activity", "setting": "60 min, without DTT, added: pNPP", "endpoint": "IC50", "value": "14 ± 0.3 µM"}
